# Experimental data of several laboratories.
# Each numbered part is a random draw from the data of one study; scales do not carry over between parts. Changes are numbered by the printed parent chain.

# Sample 1
# Target: CCND2, cyclin fold, Cln2 fusion (human)
# Technique: yeast growth competition, sequencing
# Matrix: yeast
# Notes: strong parent motif
# Relative to: not given
# Reading: higher = stronger binding
# Parent: E2F1 docking peptide (human); PPVKRRLDFETDH; partner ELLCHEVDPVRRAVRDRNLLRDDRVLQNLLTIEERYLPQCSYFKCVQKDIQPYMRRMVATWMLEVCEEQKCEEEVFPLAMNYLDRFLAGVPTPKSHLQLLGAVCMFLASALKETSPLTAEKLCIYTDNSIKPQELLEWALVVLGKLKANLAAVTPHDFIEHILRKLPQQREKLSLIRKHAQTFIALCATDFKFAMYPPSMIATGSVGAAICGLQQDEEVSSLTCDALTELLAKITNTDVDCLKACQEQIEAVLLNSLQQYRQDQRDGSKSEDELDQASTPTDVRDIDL
Substitution,normalised enrichment score
PPAKRRLDFETDH [V3A],1.69
PPVKWRLDFETDH [R5W],0.312
PPVKRRWDFETDH [L7W],0.22
PPVKRRLDFEMDH [T11M],1.82
PPVKKRLDFETDH [R5K],0.619
PPDKRRLDFETDH [V3D],-0.0181
PPVKRRLMFETDH [D8M],1.32
PPVKRRLRFETDH [D8R],0.716
PRVKRRLDFETDH [P2R],1.3
PPVKTRLDFETDH [R5T],0.212
PPPKRRLDFETDH [V3P],0.64
PPVKRRLDMETDH [F9M],0.167
PPVKRHLDFETDH [R6H],0.556
PPVKCRLDFETDH [R5C],0.326
PTVKRRLDFETDH [P2T],1.52
PPVKRRLDAETDH [F9A],0.17
PPVKRMLDFETDH [R6M],0.678
PPVKRRLDKETDH [F9K],0.239

# Sample 2
# Target: RNA binding protein fox-1 homolog 2, RRM domain, GST-SBP tag (RBFOX2, Homo sapiens, UniProt O43251-10, residues 100-194)
# Technique: RNA Bind-n-Seq
# Molecule type: RNA
# Matrix: in vitro
# Concentration: 365 nM
# Notes: natural RNA segment, single round, ends assumed
# Relative to: no-protein control
# Reading: higher = stronger binding
# Constant ends, left off below: GGGAGUUCUACAGUCCGACGAUC … UGGAAUUCUCGGGUGCCAA
# Residues (chain): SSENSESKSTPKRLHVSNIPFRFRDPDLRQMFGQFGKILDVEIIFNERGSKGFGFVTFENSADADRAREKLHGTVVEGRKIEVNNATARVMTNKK
Oligonucleotide,RBNS enrichment (R)
GUGGUCUUCUUGCACAGUGUGUGGCAGUUGAGAAAGCCUAGAAAAGGUGCCCAUUUGACCACUGUGAGGCAAAUAGAAACAGUCCCUAAGGGUCCUAUGUGGCUGUGUUG,0.957
AGCAGGCAUGUUGAAGAGUUGAGUGAUCACGCUGGAGAUGAAGGGUUGGACAUGGAUUGACUGGGAAAAGGCCUGGGUCCAUUGGAGUAAAGAUAACCUAGUCGAUUGAA,17
CCUCAGAAAGAGACAGAAUAAAAAAAUUGUUCCCCAUGGUACAGCUGGAAAAAUUAAGGGGAAAAGAGAUUAAGUGGUCCCCAAUGGAACACAGCUGUCUUAUGCAGGGC,0.618
AGCCAGGAGUGUUAAGCGUUCAGUGAUGUGGGGUGAAAAGUUACUACCUGUCAAGGUUUGUGUUACCCUCCUGUAAAUGGUGUACAUAAUGUAUUGUUGGUAAUUAUUUU,0.453
UUUAAUAUUUCUCCAAAUGAGGUUUAAAUAUACUAUAGCUACUGUUUUUAAUUUAAAGGUUAAACUUGAAGAAAGUCUUUAUUCACGGUGCCAAAAUUCAUUUUUCUAAC,0.675
GUAACCCGGGAGUGUUCCCAGGUGGCCUUAGAAAGCAAAGCUUGUAACUGGCAAGGGAUGAUGUCAGAUUCAGCCCAAGGUUCCUCCUCUCCUACCAAGCAGGAGGCCAG,1.32
CAAUGGAGCAAAGACUCCUGCUAGGCCCUGGUCUCCCUGGGGUUUAUCCCUCCUGGGUCAUGGGAAAAGUCAGUCUCCACAUUACAGAUCACUUCCAGAGGGAGGCUGGA,0.35
UUGCUAUGGCACUUUUCUAUAACCUUUUCAUUCCUGUGUACAGUAGCUUAAAAUUGCAGUGAUUGAGCAUAACCUACUUGUUUGUAUAAAUUAUUGAAAUCCAUUUGCAC,0.972
AGGCCACUGGCCCCGCAGCCCUUGGGAGGCCCCCGUGGAUGUGGCCCUGUGUGGGACCACACUGUCAUCUCGCUGCUGGCAGAAAAGCCUGAUCCCAGGAGGCCCUGCAG,0.646
UUGUGUUUUAGGUUAAGUAGUCAAUGCCCACAUCACUUCACUGUCUCAAGACUGAGCACUUCACUAAAUGGUAGAUUUUACUGUUAAAGACCCUACAAUAAGAUUGUUUU,0.536
UAUUAAUUAGGUCUAAAUACCGUGGAGCAGCCCUGAUAUCAUGCUGACAGCUUACGUGUCAGAGGGCAGAACUCAGCCAGUCCUGUGGUUUCAGGUGUUAAUAUGUAAAC,0.498
CUCUCCUAGAUUCAUUUUCAUUAUUUAUGCUAGGAUUUUCUUAUGGUUGACAUUUGAUGACAGGAAGCAAUCAUGACUCUUCAAGUGAGCUCACAGAAACCUUUCAUGUU,0.456

# Sample 3
# Target: Histone acetyltransferase KAT6A, winged helix 2, GST fusion (KAT6A, Homo sapiens, UniProt Q92794, residues 85-181)
# Technique: protein binding microarray
# Molecule type: double-stranded DNA, one strand shown
# Matrix: in vitro
# Concentration: not given
# Notes: 8-mer, flanks averaged, mean of 2 arrays, mostly near background
# Relative to: not given
# Reading: higher = stronger binding
# Residues (chain): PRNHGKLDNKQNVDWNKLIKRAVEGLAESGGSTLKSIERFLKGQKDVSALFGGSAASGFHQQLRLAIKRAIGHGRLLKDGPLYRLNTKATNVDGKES
Oligonucleotide,E-score
CCAATGCA,-0.104
GGTTGTAC,0.113
TCAGTCGA,-0.066
GCCGTGGA,-0.0762
ATTTCCAC,-0.0102
AAGAGTTC,-0.2
CACAATGA,0.00504
GGTGATAC,-0.0328
AATCCGGG,0.0684
GCGCCGAC,0.164
CTCGTTTC,0.0918
GGTTTATA,0.0218
CAGCTCCC,-0.16
GGACAGAA,-0.105
ATGCAAAG,0.00892
CCGTCCAC,0.123
AAGTAGAG,-0.139
TAATTTGA,-0.178
ACCTTGTA,-0.081
TTTGAAAA,0.191
CTCAGTCA,-0.175
CGATTGGC,0.014
CATCTGCC,-0.0804

# Further values, each from its own experiment
Substance,target,test,test system,setting,how to read,quantity,result
"PhoQ, residues 284 288 289 292 302 303 AAQSYM","PhoP, residues 12 14 15 18 19 TTLRV (Escherichia coli, UniProt P23836)","Sort-seq, refers to: YFP reporter",E. coli,"PhoQ-PhoP variant library, with: 10 µM Mg2+","relative to: high Mg2+ state, higher = stronger signaling",fold induction,9.45
